Published values of several laboratories.
Each line is one published result; not all experiments were run side by side. “And” joins repeats or separate records; there may be more than shown. ± marks the error that the study gave.
Technique: steady-state kinetics
B1: protein Y24F (uncultured bacterium HF130_AEPn_1, UniProt D0E8I5); chain MSLSNSSKVSVLISLLEKSRDLDFIGEAINQLEHSLQCAYFAQRSGADNEMVLAALLHDLGHYCNDTSFEDMGGYGVWQHEKVGADYLRGLGFSERVACLIEGHVAAKRYLVSSKASYLKNLSDASRKTLEYQGGPMDEGERRLFEEREDFKDCLKIRAWDEKGKQTDLKVPGPEHYRKMMEEHLSENQN
B2: CBCAS (Cannabis sativa, UniProt Q33DQ2); chain NPQENFLKCFSEYIPNNPANPKFIYTQHDQLYMSVLNSTIQNLRFTSDTTPKPLVIVTPSNVSHIQASILCSKKVGLQIRTRSGGHDAEGLSYISQVPFAIVDLRNMHTVKVDIHSQTAWVEAGATLGEVYYWINEMNENFSFPGGYCPTVGVGGHFSGGGYGALMRNYGLAADNIIDAHLVNVDGKVLDRKSMGEDLFWAIRGGGGENFGIIAAWKIKLVVVPSKATIFSVKKNMEIHGLVKLFNKWQNIAYKYDKDLMLTTHFRTRNITDNHGKNKTTVHGYFSSIFLGGVDSLVDLMNKSFPELGIKKTDCKELSWIDTTIFYSGVVNYNTANFKKEILLDRSAGKKTAFSIKLDYVKKLIPETAMVKILEKLYEEEVGVGMYVLYPYGGIMDEISESAIPFPHRAGIMYELWYTATWEKQEDNEKHINWVRSVYNFTTPYVSQNPRLAYLNYRDLDLGKTNPESPNNYTQARIWGEKYFGKNFNRLVKVKTKADPNNFFRNEQSIPPLPPHHH
B3: protein (Rhodopseudomonas palustris, UniProt Q6N3R9); chain MSNVRVLATDLAFPEGPVVMPDGSVVLVEIRAQQLTRVWPDGRKEVVAKVPGGPNGAALGPDGKMYICNNGGFGWFPSRGTMMPGAPAPHEYIGGSIQRVDLQSGEVETLFDKCGEHPLKGPNDLVFDKHGGLWFTDLGKRRARDMDVGAAYYIKPGMTEITEQVFGTLPLNGIGLSPDEATMYAAETPTGRLWAFDLSGPGEVKPRDVIYRGEKGKPICGLGGYQMFDSLAVEASGNVCVATLVSGCISVIAPDGTLVEQVPTGDRVTTNIAFGGPDLKTAYITLSGKGELIAMDWSRPGLPLNFLNK
B4: enzyme (Allochromatium vinosum, UniProt P45370); chain MFPIDIRPDKLTQEMLDYSRKLGQGMENLLNAEAIDTGVSPKQAVYSEDKLVLYRYDRPEGAPEAQPVPLLIVYALVNRPYMTDIQEDRSTIKGLLATGQDVYLIDWGYPDQADRALTLDDYINGYIDRCVDYLREAHGVDKVNLLGICQGGAFSLMYSALHPDKVRNLVTMVTPVDFKTPDNLLSAWVQNVDIDLAVDTMGNIPGELLNWTFLSLKPFSLTGQKYVNMVDLLDDPDKVKNFLRMEKWIFDSPDQAGETFRQFIKDFYQNNGFLNGGVVLGGQEVDLKDITCPVLNIFALQDHLVPPDASRALKGLTSSPDYTELAFPGGHIGIYVSGKAQKEVTPAIGKWLNER
B5: enzyme (Psilocybe cubensis, UniProt P0DPA8); chain MAFDLKTEDGLITYLTKHLSLDVDTSGVKRLSGGFVNVTWRIKLNAPYQGHTSIILKHAQPHMSTDEDFKIGVERSVYEYQAIKLMMANREVLGGVDGIVSVPEGLNYDLENNALIMQDVGKMKTLLDYVTAKPPLATDIARLVGTEIGGFVARLHNIGRERRDDPEFKFFSRNIVGRTTSDQLYQTIIPNAAKYGVDDPLLPTVVKDLVDDVMHSEETLVMADLWSGNILLQLEEGNPSKLQKIYILDWELCKYGPASLDLGYFLGDCYLISRFQDEQVGTTMRQAYLQSYARTSKHSINYAKVTAGIAAHIVMWTDFMQWGSEEERINFVKKGVAAFHDARGNNDNGEITSTLLKESSTA
B6: nitrilase Y142F (Rhodococcus rhodochrous, UniProt A4LA85); chain MVEYTNTFKVAAVQAQPVWFDAAKTVDKTVSIIAEAARNGCELVAFPEVFIPGYPYHIWVDSPLAGMAKFAVRYHENSLTMDSPHVQRLLDAARDHNIAVVVGISERDGGSLYMTQLIIDADGQLVARRRKLKPTHVERSVFGEGNGSDISVYDMPFARLGALNCWEHFQTLTKYAMYSMHEQVHVASWPGMSLYQPEVPAFGVDAQLTATRMYALEGQTFVVCTTQVVTPEAHEFFCENEEQRKLIGRGGGFARIIGPDGRDLATPLAEDEEGILYADIDLSAITLAKQAADPVGHYSRPDVLSLNFNQRRTTPVNTPLSTIHATHTFVPQFGALDGVRELNGADEQRALPSTHSDETDRATASI
B7: enzyme W1065M (Limosilactobacillus reuteri, UniProt Q5SBN3); chain INGQQYYIDPTTGQPRKNFLLQNGNDWIYFDKDTGAGTNALKLQFDKGTISADEQYRRGNEAYSYDDKSIENVNGYLTADTWYRPKQILKDGTTWTDSKETDMRPILMVWWPNTVTQAYYLNYMKQYGNLLPASLPSFSTDADSAELNHYSELVQQNIEKRISETGSTDWLRTLMHEFVTKNSMWNKDSENVDYGGLQLQGGFLKYVNSDLTKYANSDWRLMNRTATNIDGKNYGGAEFLLANDIDNSNPVVQAEELNWLYYLMNFGTITGNNPEANFDGIRVDAVDNVDVDLLSIARDYFNAAYNMEQSDASANKHINILEDMGWDDPAYVNKIGNPQLTMDDRLRNAIMDTLSGAPDKNQALNKLITQSLVNRANDNTENAVIPSYNFVRAHDSNAQDQIRQAIQAATGKPYGEFNLDDEKKGMEAYINDQNSTNKKWNLYNMPSAYTILLTNKDSVPRVYYGDLYQDGGQYMEHKTRYFDTITNLLKTRVKYVAGGQTMSVDKNGILTNVRFGKGAMNATDTGTDETRTEGIGVVISNNTNLKLNDGESVVLHMGAAHKNQKYRAVILTTEDGVKNYTNDTDAPVAYTDANGDLHFTNTNLDGQQYTAVRGYANPDVTGYLAVWVPAGAADDQDARTAPSDEAHTTKTAYRSNAALDSNVIYEGFSNFIYWPTTESERTNVRIAQNADLFKSWGITTFELAPQYNSSKDGTFLDSIIDNGYAFTDRYDLGMSTPNKYGSDEDLRNALQALHKAGLQAIADWVPDQIYNLPGKEAVTVTRSDDHGTTWEVSPIKNVVYITNTIGGGEYQKKYGGEFLDTLQKEYPQLFSQVYPVTQTTIDPSVKIKEWSAKYFNGTNILHRGAGYVLRSNDGKYYNLGTSTQQFLPSQLSVQDNEGYGFVKEGNNYHYYDENKQMVKDAFIQDSVGNWYYFDKNGNMVANQSPVEISSNGASGTYLFLNNGTSFRSGLVKTDAGTYYYDGDGRMVRNQTVSDGAMTYVLDENGKLVSESFDSSATEAHPLKPGDLNGQK
B8: enzyme L163H/N249W (Thermobifida fusca, UniProt Q47RK4); chain MTDVYILDAVRTPFGRYGGALSGIRPDDLAAHVLRALAERSPGLDPAAVDDVFFGDANGAGEDNRNVARMAALLAGWPTSVPGVTLNRLCGSGMESVIAANRAIAVGDASLAVAGGVESMSRAPWVLPKPAQGFPTGHETLYSTTLGWRMVNPAMPEQWTVSHGESTEQVAATYGISRAEQDAFALRSHERAARAWAEGVFDAEITQIPGAELERDESIRETSAEKLAALKPAFRPDGTITAGNASPLWDGAAALLIGDAAAAERVGREPLARIVSRGVAAVDPDVFGIGPVQAAEIALRRAGIGWDDLSVVELNEAFAAQSLACLKLWPDLDPEIVNPNGGAIAIGHPLGASGARIVGTLAHELHRRGGGWGLAAICIGVGQGLAVVLHR
B9: enzyme D233E (Acetivibrio thermocellus, UniProt A3DJ38); chain MKLTIPELSLVVLIGSSGSGKSTFAKKHFKPTEVISSDFCRGLVSDDENDQTVTGAAFDVLHYIVSKRLQLGKLTVVDATNVQESARKPLIEIAKDYHCFPVAVVFNLPEKVCQERNKNRTDRQVEEYVIRKHTQQLKKSIKGLQREGFRYVYILNSPEEVEEVVFERQPLWNNKKDEHGPFDIIGDIHGCYDELKMLLEKLGYLIEEVEGGVGSGKYRVTHPEGRKVLFLGELVDRGPKITEVLKLVMGMVKSGIALCVPGNHDVKLLRKLNGRDVQITHGLDRTLEQLAKEPQEFIEEVKAFIDGLVSHYVLDDGKLVVAHAGMKEEFQGRGSGKVREFALYGETTGETDEYGLPVRYDWASDYRGKALVVYGHTPQAEVLKVNNTINIDTGCVFGGKLTAYRYPEREIVDVKALKTYYEPAKPFLPKEDMAERFEARTDNDILDINDVLGKKIITTRLMSSITIHEENSIAALEVMSRFAADPHWLIYLPPTMSPCETSKKEGMLEHPIEAFEYFRTRGVGKVVCEQKHMGSRAVVIVCKDSQVAEKRFGVLDGTAGICYTRTGRHFFDDMQLEAELIDRVRKVLDKSGFWGDFNTDWVCLDCELMPWSAKAQKLLEEQYSAVGISGRVVLDEAVKLLKQASLNKTVSFDVSRQTSGKNADINELLQRFTERSEMMQKYVEAYRKYCWPVNSIDDLKLAPFHILATEGKVHSDKNHIWHMDTIAKYCTQDDSLIMATNHILVDVTDAESVDKGIKWWEDLTASGGEGMVVKPYDFIVKNGRELLQPAVKCRGREYLRIIYGPEYTMDENIERLRNRAVGKKRSLALREFSLGMEALERFVRNEPLYRVHECVFGVLALESEPVDPRL
Chain of UniProt P33378 (whole entry, looked up): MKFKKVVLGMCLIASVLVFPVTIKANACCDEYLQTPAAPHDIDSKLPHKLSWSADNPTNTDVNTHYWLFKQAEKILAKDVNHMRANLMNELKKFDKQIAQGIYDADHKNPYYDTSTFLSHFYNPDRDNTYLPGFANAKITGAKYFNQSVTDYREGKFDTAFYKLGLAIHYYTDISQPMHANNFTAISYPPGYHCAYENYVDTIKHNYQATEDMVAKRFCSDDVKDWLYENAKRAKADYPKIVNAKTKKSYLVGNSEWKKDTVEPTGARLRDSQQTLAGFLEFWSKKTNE
Chain of UniProt Q44467 (whole entry, looked up): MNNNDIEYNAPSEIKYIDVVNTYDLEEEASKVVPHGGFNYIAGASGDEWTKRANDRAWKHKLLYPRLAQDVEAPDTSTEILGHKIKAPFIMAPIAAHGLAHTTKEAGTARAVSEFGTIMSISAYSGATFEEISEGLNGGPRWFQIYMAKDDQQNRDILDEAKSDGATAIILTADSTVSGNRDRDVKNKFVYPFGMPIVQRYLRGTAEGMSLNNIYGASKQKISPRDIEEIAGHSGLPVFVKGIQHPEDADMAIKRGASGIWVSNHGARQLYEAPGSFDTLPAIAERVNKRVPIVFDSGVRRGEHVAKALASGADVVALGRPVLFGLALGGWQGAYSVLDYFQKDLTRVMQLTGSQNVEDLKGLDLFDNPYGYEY

Molecule	substrate	conditions	kcat
B1 (protein Y24F)	NC[C@H](O)P(=O)(O)O	pH 7, 25 °C, NaCl 150 mM, with: O2, Fe(II) 100 µM, ascorbate 100 µM	4.5 s⁻¹ and 2 s⁻¹
L-lactate oxidase (Aerococcus viridans, UniProt Q44467)	O=C1C(Cl)=CC(=Nc2ccc(O)cc2)C=C1Cl	pH 6.5, 22 °C, varied electron acceptor, apparent, with: L-lactic acid 200 mM	189 ± 11 s⁻¹
B2 (CBCAS)	CCCCCc1cc(O)c(C/C=C(\C)CCC=C(C)C)c(O)c1C(=O)O	pH 5.5, 40 °C	0.02 s⁻¹
plcB (Listeria monocytogenes, UniProt P33378)	CCCCCCC(=O)OC[C@H](COP(=O)([O-])OCC[N+](C)(C)C)OC(=O)CCCCCC	pH 6, 37 °C	8.5 ± 0.7 s⁻¹
B3 (protein)	CCCCCCCCOC(C)=O	pH 8.3, NaCl 150 mM, no saturation, with: CaCl2 1 mM	0.167 s⁻¹
B4 (enzyme)	CC(C)(COP(=O)(O)OP(=O)(O)OC[C@H]1O[C@@H](n2cnc3c(N)ncnc32)[C@H](O)[C@@H]1OP(=O)(O)O)[C@@H](O)C(=O)NCCC(=O)NCCSC(=O)C[C@H](O)CN=[N+]=[N-]	pH 7.8, 30 °C	20 s⁻¹
B5 (enzyme)	CN(C)CCc1c[nH]c2cccc(O)c12	pH 7, 40 °C	16.1 s⁻¹
B6 (nitrilase Y142F)	N#CCCCCC#N	pH 7.5, 25 °C	0.0001767 ± 1.67e-06 s⁻¹
B7 (enzyme W1065M)	OC[C@H]1O[C@@](CO)(O[C@H]2O[C@H](CO)[C@@H](O)[C@H](O)[C@H]2O)[C@@H](O)[C@@H]1O	pH 4.7, 37 °C	7.5 ± 0.5 s⁻¹
B8 (enzyme L163H/N249W)	CC(C)(COP(=O)(O)OP(=O)(O)OC[C@H]1O[C@@H](n2cnc3c(N)ncnc32)[C@H](O)[C@@H]1OP(=O)(O)O)[C@@H](O)C(=O)NCCC(=O)NCCSC(=O)CCC(=O)O	pH 7.4, 37 °C	0.0065 ± 0.0007 s⁻¹
B9 (enzyme D233E)	Nc1ncnc2c1ncn2[C@@H]1O[C@H](CO)[C@H]2OP(=O)(O)O[C@H]21	pH 7.5, 45 °C	3.25 ± 0.717 s⁻¹

A few entries again:
Molecule	substrate	conditions	kcat
B8 (enzyme L163H/N249W)	CC(C)(COP(=O)(O)OP(=O)(O)OC[C@H]1O[C@@H](n2cnc3c(N)ncnc32)[C@H](O)[C@@H]1OP(=O)(O)O)[C@@H](O)C(=O)NCCC(=O)NCCSC(=O)CCC(=O)O	pH 7.4, 37 °C	0.0065 ± 0.0007 s⁻¹
